Measured values from different studies.
Each numbered part is a random draw from the data of one study; scales do not carry over between parts.
Chain of UniProt P19784 (whole entry, looked up): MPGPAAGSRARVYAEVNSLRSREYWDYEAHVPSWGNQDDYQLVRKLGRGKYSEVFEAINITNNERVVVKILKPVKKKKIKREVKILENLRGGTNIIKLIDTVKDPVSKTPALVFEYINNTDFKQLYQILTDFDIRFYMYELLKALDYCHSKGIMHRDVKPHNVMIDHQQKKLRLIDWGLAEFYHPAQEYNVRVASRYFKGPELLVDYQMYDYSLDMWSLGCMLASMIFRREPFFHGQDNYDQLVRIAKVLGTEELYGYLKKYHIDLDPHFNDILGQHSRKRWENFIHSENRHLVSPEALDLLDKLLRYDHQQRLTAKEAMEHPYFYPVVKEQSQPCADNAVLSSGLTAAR
Chain of UniProt Q9Y6R4 (whole entry, looked up): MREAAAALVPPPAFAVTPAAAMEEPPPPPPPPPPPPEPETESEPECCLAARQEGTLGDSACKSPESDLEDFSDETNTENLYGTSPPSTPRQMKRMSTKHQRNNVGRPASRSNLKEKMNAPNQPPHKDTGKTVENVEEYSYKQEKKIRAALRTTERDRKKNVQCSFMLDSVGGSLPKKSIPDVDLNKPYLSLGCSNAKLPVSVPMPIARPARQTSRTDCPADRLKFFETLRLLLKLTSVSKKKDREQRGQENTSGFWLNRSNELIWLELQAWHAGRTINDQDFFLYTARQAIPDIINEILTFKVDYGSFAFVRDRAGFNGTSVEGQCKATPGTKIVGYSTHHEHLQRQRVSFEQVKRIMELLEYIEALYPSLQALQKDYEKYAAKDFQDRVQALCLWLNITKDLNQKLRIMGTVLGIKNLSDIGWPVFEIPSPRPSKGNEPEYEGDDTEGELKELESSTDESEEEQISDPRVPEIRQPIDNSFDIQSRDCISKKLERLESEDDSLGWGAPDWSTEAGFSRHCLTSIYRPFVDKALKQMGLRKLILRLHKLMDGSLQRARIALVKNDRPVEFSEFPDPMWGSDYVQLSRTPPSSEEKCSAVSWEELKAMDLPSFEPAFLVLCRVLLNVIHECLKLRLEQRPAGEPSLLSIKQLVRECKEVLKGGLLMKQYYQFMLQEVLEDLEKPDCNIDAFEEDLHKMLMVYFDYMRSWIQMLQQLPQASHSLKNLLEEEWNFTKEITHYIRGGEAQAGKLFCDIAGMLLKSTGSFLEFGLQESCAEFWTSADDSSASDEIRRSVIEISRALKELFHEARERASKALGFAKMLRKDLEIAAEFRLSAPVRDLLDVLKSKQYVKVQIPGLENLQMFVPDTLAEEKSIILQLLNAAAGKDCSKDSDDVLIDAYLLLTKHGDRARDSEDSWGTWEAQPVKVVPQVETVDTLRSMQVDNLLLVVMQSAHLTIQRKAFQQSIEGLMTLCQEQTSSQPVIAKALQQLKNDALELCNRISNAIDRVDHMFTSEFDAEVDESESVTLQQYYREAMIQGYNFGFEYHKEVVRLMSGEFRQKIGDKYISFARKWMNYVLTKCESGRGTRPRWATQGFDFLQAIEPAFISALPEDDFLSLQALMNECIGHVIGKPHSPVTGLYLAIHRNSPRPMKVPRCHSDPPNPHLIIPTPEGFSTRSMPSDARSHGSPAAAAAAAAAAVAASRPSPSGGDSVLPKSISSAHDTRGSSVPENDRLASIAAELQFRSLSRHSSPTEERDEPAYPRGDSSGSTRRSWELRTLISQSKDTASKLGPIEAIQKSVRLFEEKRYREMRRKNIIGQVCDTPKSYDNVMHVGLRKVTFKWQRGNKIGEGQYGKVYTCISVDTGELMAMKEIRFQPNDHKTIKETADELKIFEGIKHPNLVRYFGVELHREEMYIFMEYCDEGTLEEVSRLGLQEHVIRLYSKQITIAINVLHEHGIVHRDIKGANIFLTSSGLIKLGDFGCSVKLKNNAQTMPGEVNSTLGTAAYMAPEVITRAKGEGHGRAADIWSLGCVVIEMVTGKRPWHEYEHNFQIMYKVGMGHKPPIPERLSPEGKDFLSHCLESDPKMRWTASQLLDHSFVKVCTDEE
Chain of UniProt Q15139 (whole entry, looked up): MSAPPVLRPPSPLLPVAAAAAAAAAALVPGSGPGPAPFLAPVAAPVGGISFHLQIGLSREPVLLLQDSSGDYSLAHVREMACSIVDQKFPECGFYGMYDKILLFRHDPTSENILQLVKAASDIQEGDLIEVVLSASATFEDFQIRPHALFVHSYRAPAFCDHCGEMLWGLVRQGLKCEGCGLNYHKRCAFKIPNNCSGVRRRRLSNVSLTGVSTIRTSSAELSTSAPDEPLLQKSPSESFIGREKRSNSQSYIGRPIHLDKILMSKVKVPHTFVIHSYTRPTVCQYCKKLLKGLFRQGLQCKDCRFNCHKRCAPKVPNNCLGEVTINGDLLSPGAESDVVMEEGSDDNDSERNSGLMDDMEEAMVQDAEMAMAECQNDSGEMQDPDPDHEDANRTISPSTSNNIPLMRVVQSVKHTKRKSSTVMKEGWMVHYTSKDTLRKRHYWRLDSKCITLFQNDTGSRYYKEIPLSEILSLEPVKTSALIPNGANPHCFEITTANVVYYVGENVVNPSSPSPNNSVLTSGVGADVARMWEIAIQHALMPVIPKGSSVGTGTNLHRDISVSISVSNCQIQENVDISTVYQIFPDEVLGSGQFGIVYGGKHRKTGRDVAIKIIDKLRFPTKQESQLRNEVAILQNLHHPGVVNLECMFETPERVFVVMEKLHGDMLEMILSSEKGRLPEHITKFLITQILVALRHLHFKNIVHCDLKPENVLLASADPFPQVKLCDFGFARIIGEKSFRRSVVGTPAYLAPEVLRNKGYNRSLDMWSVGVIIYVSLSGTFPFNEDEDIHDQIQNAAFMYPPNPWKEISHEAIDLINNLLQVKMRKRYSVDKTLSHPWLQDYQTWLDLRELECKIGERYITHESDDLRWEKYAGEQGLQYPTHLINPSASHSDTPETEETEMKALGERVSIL
Chain of UniProt P42336 (whole entry, unmodified, looked up): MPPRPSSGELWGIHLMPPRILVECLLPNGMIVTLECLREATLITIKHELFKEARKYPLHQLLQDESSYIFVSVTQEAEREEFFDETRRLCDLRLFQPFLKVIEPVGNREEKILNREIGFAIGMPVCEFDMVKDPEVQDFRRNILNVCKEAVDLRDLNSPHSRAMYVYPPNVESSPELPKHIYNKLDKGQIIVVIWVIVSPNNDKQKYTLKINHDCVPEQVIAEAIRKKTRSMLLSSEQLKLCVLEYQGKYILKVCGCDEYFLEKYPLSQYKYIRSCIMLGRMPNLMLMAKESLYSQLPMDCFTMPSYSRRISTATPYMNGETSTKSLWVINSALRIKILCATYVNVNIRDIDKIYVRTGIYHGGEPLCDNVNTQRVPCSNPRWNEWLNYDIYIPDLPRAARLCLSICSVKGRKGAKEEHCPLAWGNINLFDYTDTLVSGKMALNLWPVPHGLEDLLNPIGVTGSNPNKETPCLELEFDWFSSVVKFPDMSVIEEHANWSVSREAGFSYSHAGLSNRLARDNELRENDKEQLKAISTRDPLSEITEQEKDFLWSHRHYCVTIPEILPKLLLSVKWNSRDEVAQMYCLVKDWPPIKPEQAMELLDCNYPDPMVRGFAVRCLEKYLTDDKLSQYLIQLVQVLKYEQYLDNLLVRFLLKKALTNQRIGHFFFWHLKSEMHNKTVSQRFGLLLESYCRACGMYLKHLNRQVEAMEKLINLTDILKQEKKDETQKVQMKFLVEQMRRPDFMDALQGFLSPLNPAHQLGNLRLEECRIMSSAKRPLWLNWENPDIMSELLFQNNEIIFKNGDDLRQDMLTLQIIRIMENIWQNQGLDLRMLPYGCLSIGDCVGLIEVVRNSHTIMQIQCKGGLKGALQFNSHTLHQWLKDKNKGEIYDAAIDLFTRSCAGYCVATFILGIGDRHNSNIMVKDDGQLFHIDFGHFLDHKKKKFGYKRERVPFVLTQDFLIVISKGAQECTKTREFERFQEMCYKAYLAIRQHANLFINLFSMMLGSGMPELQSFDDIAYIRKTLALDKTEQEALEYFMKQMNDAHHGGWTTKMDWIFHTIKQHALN

Study 1
SMILES: COc1cc(C(=O)N2CCC(N3CCN(C)CC3)CC2)ccc1Nc1ncc2c(n1)N(C)c1ccccc1C(=O)N2C
Method: KINOMEscan
Tested at: 10 µM
Baseline: DMSO control
Direction: lower = stronger binding
| target | binding |
| --- | --- |
| ABL2 | 97% |
| ACVR2B | 100% |
| FYN | 100% |
| ACVR2A | 100% |
| CSNK2A2 | 93% |
| EPHA6 | 89% |

Study 2
Target: Mitogen-activated protein kinase kinase kinase 7 (MAP3K7, Homo sapiens, UniProt O43318)
Chain of UniProt O43318 (whole entry, looked up): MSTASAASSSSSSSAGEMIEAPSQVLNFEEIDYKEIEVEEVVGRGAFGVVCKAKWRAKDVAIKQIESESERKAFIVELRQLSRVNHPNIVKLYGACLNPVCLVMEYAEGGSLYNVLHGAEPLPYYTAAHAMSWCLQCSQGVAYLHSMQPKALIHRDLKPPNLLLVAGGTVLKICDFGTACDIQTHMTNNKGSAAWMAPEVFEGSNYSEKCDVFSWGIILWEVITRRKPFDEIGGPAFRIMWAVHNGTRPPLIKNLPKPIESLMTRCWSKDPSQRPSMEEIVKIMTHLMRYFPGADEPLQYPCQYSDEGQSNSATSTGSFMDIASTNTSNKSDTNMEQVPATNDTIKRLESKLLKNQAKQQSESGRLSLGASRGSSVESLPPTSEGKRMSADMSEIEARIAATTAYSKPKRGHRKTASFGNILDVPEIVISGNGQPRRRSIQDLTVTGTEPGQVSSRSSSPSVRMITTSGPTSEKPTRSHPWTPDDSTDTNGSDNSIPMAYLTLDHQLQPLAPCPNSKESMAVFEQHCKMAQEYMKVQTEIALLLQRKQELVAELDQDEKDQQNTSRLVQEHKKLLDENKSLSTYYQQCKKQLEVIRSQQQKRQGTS
Effect on: enzyme activity
Mode: inhibitor
Tested at: 0.5 µM
Baseline: control
| Structure (SMILES) | remaining activity [%] |
| --- | --- |
| O=C(Nc1ccc(Cl)cc1)c1ccccc1NCc1ccncc1 | 98.1 |
| COc1ccc(Cl)cc1NC(=O)Nc1cc(C)nc2ccccc12 | 101 |
| C[S+]([O-])c1ccc(-c2nc(-c3ccncc3)c(-c3ccc(F)cc3)[nH]2)cc1 (centres unmarked) | 94 |
| COc1cc2ncnc(N3CCN(C(=O)Nc4ccc(Oc5ccccc5)cc4)CC3)c2cc1OC | 98.3 |
| Cn1cc(/C=C2\C(=O)Nc3ccc(S(N)(=O)=O)cc32)c2ccccc21 | 48.9 |
| CCC(=O)Nc1ccc2ncnc(Nc3cccc(Br)c3)c2c1 | 94 |
| O=c1cc(N2CCOCC2)oc2c1ccc1ccccc12 | 98.3 |
| CCN1/C(=C/C(C)=O)Sc2ccc(OC)cc21 | 99.9 |
| Cn1cnc2cc3c(Nc4cccc(Br)c4)ncnc3cc21 | 98.6 |
| CCOc1cc2ncnc(Nc3cccc(Br)c3)c2cc1OCC | 102 |
| COc1cc2ncc(-c3ccccc3)nc2cc1OC | 92.8 |
| Nc1[nH]nc2nnc(-c3c(-c4ccccc4)nn4ccccc34)cc12 | 101 |
| Cc1ccc(NC(=O)c2ccc(CN3CCN(C)CC3)cc2)cc1Nc1nccc(-c2cccnc2)n1 | 111 |

Study 3
SMILES: COc1ccc2c(c1)O[C@H](c1ccc(OC)c(OC)c1)C[C@@H]2NC(=O)C1(c2ccc3c(c2)OC(F)(F)O3)CC1
Effect on: cell-free assay
Method: competition with immobilised ligand
Tested at: 1 µM
| target | remaining binding |
| --- | --- |
| SLK (Homo sapiens, UniProt Q9H2G2) | 100% |
| PIK3CA (Homo sapiens, UniProt P42336, I800L) | 97% |
| FLT3 (Homo sapiens, UniProt P36888) | 100% |
| MAP3K20 (Homo sapiens, UniProt Q9NYL2) | 97% |
| PTK2B (Homo sapiens, UniProt Q14289) | 100% |
| Ribosomal protein S6 kinase alpha-1, C-terminal kinase domain (RPS6KA1, Homo sapiens, UniProt Q15418) | 100% |
| PRKD1 (Homo sapiens, UniProt Q15139) | 100% |
| CSNK2A2 (Homo sapiens, UniProt P19784) | 100% |
| MYLK2 (Homo sapiens, UniProt Q9H1R3) | 95% |
| DYRK2 (Homo sapiens, UniProt Q92630) | 100% |
| MAP3K4 (Homo sapiens, UniProt Q9Y6R4) | 98% |

Study 4
Organism: Plasmodium berghei
Mode: inhibitor
Cell line: Huh-7
Strain: GFP-expressing, liver stage
Tested at: 10 µM
Time: 24 h
Baseline: untreated control
| Structure (SMILES) | infection rate |
| --- | --- |
| COc1ccc(CN(CCN(C)C)c2ccccn2)cc1 | 119% |
| CC(=O)N(c1onc(C)c1C)S(=O)(=O)c1ccc(N)cc1 | 112% |
| CCn1cc(C(=O)O)c(=O)c2cc3c(cc21)OCO3 | 76.9% |
| CC(=O)Nc1ccc(OCC(O)CNC(C)C)cc1 (centres unmarked) | 107% |
| COc1cc(NS(=O)(=O)c2ccc(N)cc2)ncn1 | 108% |
| O=C(/C=C/C=C/c1ccc2c(c1)OCO2)N1CCCCC1 | 95% |
| Nc1nc2[nH]cnc2c(=S)[nH]1 | 36.6% |
| CN(C/C=C/C#CC(C)(C)C)Cc1cccc2ccccc12 | 99.7% |

Repeated from above (study 2):
| Structure (SMILES) | remaining activity [%] |
| --- | --- |
| CCN1/C(=C/C(C)=O)Sc2ccc(OC)cc21 | 99.9 |
| Cn1cnc2cc3c(Nc4cccc(Br)c4)ncnc3cc21 | 98.6 |
| CCOc1cc2ncnc(Nc3cccc(Br)c3)c2cc1OCC | 102 |
| COc1cc2ncc(-c3ccccc3)nc2cc1OC | 92.8 |
| Nc1[nH]nc2nnc(-c3c(-c4ccccc4)nn4ccccc34)cc12 | 101 |
| Cc1ccc(NC(=O)c2ccc(CN3CCN(C)CC3)cc2)cc1Nc1nccc(-c2cccnc2)n1 | 111 |
